Published values pooled from the literature.
Protocols differ between the studies behind these lines. ± marks the error that the study gave.

N#Cc1ccc(-c2ccc(-c3ccco3)o2)nc1 — viability (Salmonella typhimurium; OD; TA1535, liquid broth; 12.5 µM, 15 h): ~40%
C=CCC1=C[C@]2(C[C@@H](O)C(C)(C)O2)C2=C(C[C@H]3C[C@@H]4[C@@H](C[C@@]3(C)O2)C(=C)CCCC4(C)C)C1=O — selectivity index (coxsackievirus B3; cytopathic effect; Vero, Nancy; baseline: CC50 over IC50): 2.1
COc1ccc(S(=O)(=O)N(CC(F)(F)F)c2cnc(N(CC(=O)O)S(=O)(=O)c3ccc(OC)cc3)c3ccccc23)cc1 — revertant increase (Salmonella typhimurium; mini-Ames test; TA98 and TA100; 100 µM, 90 min, together with: S9 liver fraction; baseline: vehicle control): > 2 fold
N=C(N)c1ccc(-c2ccc(-c3cccs3)s2)cc1 — viability (Salmonella typhimurium; liquid broth OD; TA1535; 25 µM, 15 h; baseline: growth): 80.4 ± 3.1%
Cc1cc(C#N)cc(C)c1Oc1nc(NC2CCN(Cc3cccc(F)c3)CC2)nc2ccccc12 — selectivity index (HIV-1; TZM-bl, NL4-3 wild type; baseline: CC50 over EC50): > 10.3
C=CCC1=C[C@@]2(C[C@@H](O)C(C)(C)O2)C2=C(C[C@H]3C[C@@H]4C(=C)CCCC(C)(C)[C@H]4C[C@@]3(C)O2)C1=O — selectivity index (coxsackievirus B3; cytopathic effect; Vero, Nancy; baseline: CC50 over IC50): 3
Cc1cc(C#N)cc(C)c1Oc1nc(NC2CCN(Cc3cccc(Cl)c3)CC2)nc2ccccc12 — selectivity index (HIV-1; TZM-bl, NL4-3 wild type; baseline: CC50 over EC50): > 9.92
N#Cc1ccc(-c2ccc(-c3ccco3)o2)cc1 — viability (Salmonella typhimurium; liquid broth OD; TA1535; 100 µM, 15 h; baseline: growth): 113 ± 11.4%
Cc1cc(C#N)cc(C)c1Oc1nc(NC2CCN(Cc3ccc(S(C)(=O)=O)cc3)CC2)nc2cccnc12 — selectivity index (HIV-1; TZM-bl, NL4-3 wild type; baseline: CC50 over EC50): 18000
CC12CC(O)C3CC1(OC1OC(CO)C(O)C(O)C1O)C3(COC(=O)c1ccccc1)C(=O)O2 (stereo not drawn) — conversion (Bifidobacterium breve; rat gut microbiota; 12 h, anaerobic, SD rat microbiota 100%): 74.5%
COc1cc2nc(NC3CCN(Cc4ccc(S(N)(=O)=O)cc4)CC3)nc(Oc3c(C)cc(C#N)cc3C)c2cc1OC — selectivity index (HIV-1; TZM-bl, NL4-3 wild type; baseline: CC50 over EC50): 914
N#Cc1ccc(-c2ccc(-c3cccs3)s2)cc1 — viability (Salmonella typhimurium; liquid broth OD; TA1535; 12.5 µM, 15 h; baseline: growth): 111 ± 6.1%

Repeated from above:
N#Cc1ccc(-c2ccc(-c3ccco3)o2)nc1 — viability (Salmonella typhimurium; OD; TA1535, liquid broth; 12.5 µM, 15 h): ~40%
CC12CC(O)C3CC1(OC1OC(CO)C(O)C(O)C1O)C3(COC(=O)c1ccccc1)C(=O)O2 (stereo not drawn) — conversion (Bifidobacterium breve; rat gut microbiota; 12 h, anaerobic, SD rat microbiota 100%): 74.5%
